Measurements pooled from the literature.
Several values in a cell are separate wells, animals, samples, runs or records. ± marks the error that the study gave. Non-standard residues stand in square brackets, D forms with d. Square brackets hold non-standard residues; d marks the D form. Primed or numbered codes have the meaning given here. Where no end group is shown, it is not given here. Ends that are not written are not given here. No end group written: not given here. * marks the point of attachment. *: point of attachment.
PIN1: PIN1 (Homo sapiens, UniProt Q13526)
RPA1: RPA1 1-120 (Homo sapiens, UniProt P27694)
Sequence of UniProt P27694 (whole entry, looked up): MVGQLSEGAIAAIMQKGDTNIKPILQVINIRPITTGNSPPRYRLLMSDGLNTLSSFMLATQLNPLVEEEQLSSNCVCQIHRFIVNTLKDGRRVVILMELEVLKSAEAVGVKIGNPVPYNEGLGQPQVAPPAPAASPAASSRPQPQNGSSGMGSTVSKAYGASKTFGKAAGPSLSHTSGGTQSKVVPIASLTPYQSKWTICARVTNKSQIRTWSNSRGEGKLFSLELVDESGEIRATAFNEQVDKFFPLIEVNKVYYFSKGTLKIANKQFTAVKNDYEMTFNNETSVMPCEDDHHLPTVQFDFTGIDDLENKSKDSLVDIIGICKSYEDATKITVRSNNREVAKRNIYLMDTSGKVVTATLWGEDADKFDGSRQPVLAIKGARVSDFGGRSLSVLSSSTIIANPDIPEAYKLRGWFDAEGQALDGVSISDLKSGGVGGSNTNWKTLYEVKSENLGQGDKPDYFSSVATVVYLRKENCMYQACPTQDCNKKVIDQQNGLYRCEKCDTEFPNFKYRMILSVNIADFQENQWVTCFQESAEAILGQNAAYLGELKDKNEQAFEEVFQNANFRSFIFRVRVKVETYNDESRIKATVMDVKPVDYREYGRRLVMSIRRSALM
B1: TIM8/TIM13 hetero-hexamer (Saccharomyces cerevisiae); chain 1 MSSLSTSDLASLDDTSKKEIATFLEGENSKQKVQMSIHQFTNICFKKCVESVNDSNLSSQEEQCLSNCVNRFLDTNIRIVNGLQNTR; chain 2 GGLSSIFGGGAPSQQKEAATTAKTTPNPIAKELKNQIAQELAVANATELVNKISENCFEKCLTSPYATRNDACIDQCLAKYMRSWNVISKAYISRIQNASASGEI
B2: GPR155 538-658 (Homo sapiens, UniProt Q7Z3F1); sequence looked up; chain SLMCMNQTAQAGSYEGFDQSQSHKVVEPGNTAFEESPAPVNEPELFTSSIPETSCCSCSMGNGELHCPSIEPIANTSTSEPVIPSFEKNNHCVSRCNSQSCILAQEEEQYLQSGDQQLTRH
B3: PPARG AF-1 1-136 (Homo sapiens, UniProt P37231-1); pS112, pT75; chain MGETLGDSPIDPESDSFTDTLSANISQEMTMVDTEMPFWPTNFGISSVDLSVMEDHSHSFDIKPFTTVDFSSISTPHYEDIPFTRTDPVVADYKYDLKLQEYQSAIKVEPASPPYYSEKTQLYNKPHEEPSNSLMA
B4: ISU1 mature (Saccharomyces cerevisiae, UniProt Q03020); sequence looked up; chain SSITKRLYHPKVIEHYTHPRNVGSLDKKLPNVGTGLVGAPACGDVMRLQIKVNDSTGVIEDVKFKTFGCGSAIASSSYMTELVQGMTLDDAAKIKNTEIAKELSLPPVKLHCSMLAEDAIKAAIKDYKSKRNTPTMLS
B5: adrenodoxin (Bos taurus, UniProt P00257); RED dye on amines; sequence looked up; chain SSSEDKITVHFINRDGETLTTKGKIGDSLLDVVVQNNLDIDGFGACEGTLACSTCHLIFEQHIFEKLEAITDEENDMLDLAYGLTDRSRLGCQICLTKAMDNMTVRVPDAVSDARESIDMGMNSSKIE
B6: CDH1 residues 1-108 (Homo sapiens); chain MDWVIPPISLPENEKGPFPKNLVQIKSNKDKEGKVFYSITGQGADTPPVGVFIIERETGWLKVTEPLDRERIATYTLFSHAVSSNGNAVEDPMEILITVTDQNDNKPEF
B7: DBI (Mus musculus, UniProt P31786); Cy5 label; sequence looked up; chain MSQAEFDKAAEEVKRLKTQPTDEEMLFIYSHFKQATVGDVNTDRPGLLDLKGKAKWDSWNKLKGTSKESAMKTYVEKVDELKKKYGI
Sequence of UniProt P06400 (whole entry, unmodified, looked up): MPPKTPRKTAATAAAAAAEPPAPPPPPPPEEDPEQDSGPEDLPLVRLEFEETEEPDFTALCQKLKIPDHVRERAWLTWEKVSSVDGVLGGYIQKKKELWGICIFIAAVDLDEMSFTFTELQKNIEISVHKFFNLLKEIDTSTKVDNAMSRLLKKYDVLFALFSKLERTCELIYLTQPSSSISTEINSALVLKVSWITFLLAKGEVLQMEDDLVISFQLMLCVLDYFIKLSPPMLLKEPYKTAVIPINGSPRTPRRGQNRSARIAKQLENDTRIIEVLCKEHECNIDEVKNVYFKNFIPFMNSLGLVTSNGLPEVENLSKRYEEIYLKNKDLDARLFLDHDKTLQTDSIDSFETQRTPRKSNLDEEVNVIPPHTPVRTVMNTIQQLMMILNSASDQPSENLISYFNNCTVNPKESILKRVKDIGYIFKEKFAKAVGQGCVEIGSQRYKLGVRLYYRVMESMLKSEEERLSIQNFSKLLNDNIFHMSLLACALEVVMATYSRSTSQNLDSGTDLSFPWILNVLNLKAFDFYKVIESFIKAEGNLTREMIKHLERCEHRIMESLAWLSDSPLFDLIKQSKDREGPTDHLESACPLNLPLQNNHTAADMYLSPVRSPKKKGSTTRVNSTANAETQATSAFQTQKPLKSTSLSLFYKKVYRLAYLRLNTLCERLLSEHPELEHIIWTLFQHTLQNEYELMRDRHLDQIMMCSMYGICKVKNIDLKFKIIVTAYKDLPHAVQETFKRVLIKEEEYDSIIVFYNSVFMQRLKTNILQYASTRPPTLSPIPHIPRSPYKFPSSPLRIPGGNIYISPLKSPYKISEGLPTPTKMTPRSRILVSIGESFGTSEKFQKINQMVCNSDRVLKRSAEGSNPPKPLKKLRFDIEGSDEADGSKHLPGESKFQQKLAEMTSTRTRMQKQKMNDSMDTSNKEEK
Sequence of UniProt P15873 (whole entry, unmodified, looked up): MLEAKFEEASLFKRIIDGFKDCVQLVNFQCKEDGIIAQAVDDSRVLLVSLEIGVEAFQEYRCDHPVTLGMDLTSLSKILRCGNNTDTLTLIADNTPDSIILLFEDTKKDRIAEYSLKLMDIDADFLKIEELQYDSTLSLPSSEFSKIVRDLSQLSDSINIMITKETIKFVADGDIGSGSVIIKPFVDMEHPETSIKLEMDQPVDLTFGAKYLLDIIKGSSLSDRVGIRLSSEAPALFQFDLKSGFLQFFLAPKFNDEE
Sequence of UniProt Q92547 (whole entry, unmodified, looked up): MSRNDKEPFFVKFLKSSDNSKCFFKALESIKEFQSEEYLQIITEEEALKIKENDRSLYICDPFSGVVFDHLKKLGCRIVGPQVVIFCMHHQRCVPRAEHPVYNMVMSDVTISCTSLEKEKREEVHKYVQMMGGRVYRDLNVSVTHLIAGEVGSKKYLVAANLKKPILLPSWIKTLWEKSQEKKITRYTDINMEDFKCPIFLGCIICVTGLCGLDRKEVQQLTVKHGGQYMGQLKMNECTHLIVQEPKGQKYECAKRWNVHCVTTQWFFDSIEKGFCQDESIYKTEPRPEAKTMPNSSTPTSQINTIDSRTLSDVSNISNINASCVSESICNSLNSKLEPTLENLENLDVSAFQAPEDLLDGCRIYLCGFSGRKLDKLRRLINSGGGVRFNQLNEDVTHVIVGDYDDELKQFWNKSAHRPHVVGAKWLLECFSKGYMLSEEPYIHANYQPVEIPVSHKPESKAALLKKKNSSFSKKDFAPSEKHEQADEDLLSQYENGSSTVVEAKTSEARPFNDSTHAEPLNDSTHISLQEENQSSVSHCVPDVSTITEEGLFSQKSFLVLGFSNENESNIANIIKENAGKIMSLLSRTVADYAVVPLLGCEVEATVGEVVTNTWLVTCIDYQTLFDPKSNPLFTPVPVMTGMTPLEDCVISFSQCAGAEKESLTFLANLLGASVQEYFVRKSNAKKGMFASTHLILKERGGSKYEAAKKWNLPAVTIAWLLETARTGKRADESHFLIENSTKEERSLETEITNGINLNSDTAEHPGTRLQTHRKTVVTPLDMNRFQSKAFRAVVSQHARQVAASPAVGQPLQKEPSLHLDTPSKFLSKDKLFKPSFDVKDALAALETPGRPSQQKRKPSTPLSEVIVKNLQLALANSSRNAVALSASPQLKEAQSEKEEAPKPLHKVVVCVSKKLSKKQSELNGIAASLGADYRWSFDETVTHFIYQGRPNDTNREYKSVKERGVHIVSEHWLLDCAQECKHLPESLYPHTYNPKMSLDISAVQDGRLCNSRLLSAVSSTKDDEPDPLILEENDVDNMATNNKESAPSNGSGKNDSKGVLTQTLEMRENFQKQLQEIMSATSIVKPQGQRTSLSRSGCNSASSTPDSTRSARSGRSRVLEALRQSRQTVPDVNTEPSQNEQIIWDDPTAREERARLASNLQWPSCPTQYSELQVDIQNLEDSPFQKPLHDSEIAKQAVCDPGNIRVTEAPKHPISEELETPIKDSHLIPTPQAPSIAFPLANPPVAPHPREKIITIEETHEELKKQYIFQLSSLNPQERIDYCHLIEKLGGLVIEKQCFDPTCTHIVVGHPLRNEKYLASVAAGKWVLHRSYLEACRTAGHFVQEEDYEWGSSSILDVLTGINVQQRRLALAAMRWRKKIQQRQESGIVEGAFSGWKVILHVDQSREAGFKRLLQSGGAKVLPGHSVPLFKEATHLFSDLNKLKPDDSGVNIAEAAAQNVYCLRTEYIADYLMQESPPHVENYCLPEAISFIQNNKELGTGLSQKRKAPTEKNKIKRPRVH
Sequence of UniProt P32897 (whole entry, looked up): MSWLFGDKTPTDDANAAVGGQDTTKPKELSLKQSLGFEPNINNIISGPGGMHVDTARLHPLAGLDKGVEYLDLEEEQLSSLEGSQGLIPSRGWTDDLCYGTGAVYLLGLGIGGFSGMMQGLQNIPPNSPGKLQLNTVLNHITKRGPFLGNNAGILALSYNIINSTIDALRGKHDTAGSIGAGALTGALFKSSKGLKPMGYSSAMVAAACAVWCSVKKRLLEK
Sequence of UniProt P32198 (whole entry, unmodified, looked up): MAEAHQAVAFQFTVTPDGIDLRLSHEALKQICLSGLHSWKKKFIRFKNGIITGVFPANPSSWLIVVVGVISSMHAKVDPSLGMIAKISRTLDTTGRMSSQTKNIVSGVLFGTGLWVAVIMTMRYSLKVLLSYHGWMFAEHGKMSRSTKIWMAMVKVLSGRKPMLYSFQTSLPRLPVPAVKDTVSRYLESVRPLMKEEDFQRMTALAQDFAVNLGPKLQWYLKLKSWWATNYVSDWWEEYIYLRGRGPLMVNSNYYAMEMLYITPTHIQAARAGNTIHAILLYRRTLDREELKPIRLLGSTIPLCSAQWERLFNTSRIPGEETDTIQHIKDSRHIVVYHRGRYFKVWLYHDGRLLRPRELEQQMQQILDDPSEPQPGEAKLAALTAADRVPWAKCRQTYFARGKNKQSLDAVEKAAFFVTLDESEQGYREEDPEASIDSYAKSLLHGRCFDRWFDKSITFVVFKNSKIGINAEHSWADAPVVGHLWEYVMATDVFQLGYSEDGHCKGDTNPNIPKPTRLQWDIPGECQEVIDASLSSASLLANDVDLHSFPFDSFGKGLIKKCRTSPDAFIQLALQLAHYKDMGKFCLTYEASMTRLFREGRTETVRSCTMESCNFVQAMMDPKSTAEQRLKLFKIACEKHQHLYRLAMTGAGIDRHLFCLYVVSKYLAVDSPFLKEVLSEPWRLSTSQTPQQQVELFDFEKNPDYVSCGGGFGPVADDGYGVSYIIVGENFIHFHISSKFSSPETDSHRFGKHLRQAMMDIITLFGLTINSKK
Sequence of UniProt Q02318 (whole entry, looked up): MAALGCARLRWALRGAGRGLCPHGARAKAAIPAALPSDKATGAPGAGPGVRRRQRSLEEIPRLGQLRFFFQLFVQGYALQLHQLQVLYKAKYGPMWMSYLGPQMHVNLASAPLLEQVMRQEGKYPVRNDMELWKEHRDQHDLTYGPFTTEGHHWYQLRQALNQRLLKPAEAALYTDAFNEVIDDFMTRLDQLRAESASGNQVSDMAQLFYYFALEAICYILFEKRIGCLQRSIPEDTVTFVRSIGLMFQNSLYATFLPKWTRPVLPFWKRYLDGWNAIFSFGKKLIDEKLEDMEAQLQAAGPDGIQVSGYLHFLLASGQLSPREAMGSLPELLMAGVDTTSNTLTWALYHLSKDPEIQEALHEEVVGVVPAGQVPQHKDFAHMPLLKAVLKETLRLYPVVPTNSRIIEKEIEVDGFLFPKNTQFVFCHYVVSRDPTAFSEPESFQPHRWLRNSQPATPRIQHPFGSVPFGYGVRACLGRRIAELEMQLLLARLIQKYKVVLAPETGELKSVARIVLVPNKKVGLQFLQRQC
Sequence of UniProt Q96E93 (whole entry, looked up): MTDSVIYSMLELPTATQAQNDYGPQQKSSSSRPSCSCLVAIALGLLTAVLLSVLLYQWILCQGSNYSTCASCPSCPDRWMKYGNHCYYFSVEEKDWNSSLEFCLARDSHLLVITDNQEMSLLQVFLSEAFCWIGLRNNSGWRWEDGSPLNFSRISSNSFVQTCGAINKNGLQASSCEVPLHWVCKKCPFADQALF

`B1 (TIM8/TIM13 hetero-hexamer)` gave a Kd of 66 ± 8 µM (TIM23 1-98 (Saccharomyces cerevisiae, UniProt P32897); ITC; 20 °C).
With `{TMR}-QDDYLWGLEAGEGISDLFD (E2F2 409-428 (Homo sapiens); N-terminal TMR label; TMR = tetramethylrhodamine dye)` the Kd was 0.0043 µM (RB1 55-787 del245-267/del582-642 (UniProt P06400); fluorescence polarisation; peptide; pH 8.0, NaCl 100 mM, two-site fit, with: E7 LxCxE peptide 10 µM).
`{FITC}-GFID[pS]D[pT]DVEEE-NH2 (peptide; N-terminal FITC, pS5, pT7, C-terminal amide; FITC = O=C1OC2(c3ccc(O)cc3Oc3cc(O)ccc32)c2ccc(NC(=S)*)cc21; pS = N[C@@H](COP(=O)(O)O)C(=O)O; pT = C[C@@H](OP(=O)(O)O)[C@H](N)C(=O)O)` gave a Kd of 15 ± 1 µM (TOPBP1 641-746 M689A (Homo sapiens, UniProt Q92547); fluorescence polarisation; peptide; pH 7.5, NaCl 150 mM).
`PNKP fragment (Homo sapiens)` has a Kd of 2.23 µM (XRCC1 residues 515-526, pS518/pT519 (Homo sapiens); ITC).
`B2 (GPR155 538-658)` gave a Kd of 12 µM (DEPDC5/NPRL2/NPRL3 heterotrimer; MST).
The Kd of `B3 (PPARG AF-1 1-136)` is reported as 4.08 µM and 4.44 µM (PIN1; NMR).
`{FITC-Ahx}-DFTADDLEELDTLAS-NH2 (ATRIP residues 54-68; SMILES CC(C)C[C@H](NC(=O)[C@H](CC(=O)O)NC(=O)[C@H](CC(=O)O)NC(=O)[C@H](C)NC(=O)[C@@H](NC(=O)[C@H](Cc1ccccc1)NC(=O)[C@H](CC(=O)O)NC(=O)CCCCCNC(=S)Nc1ccc2c(c1)C(=O)OC21c2ccc(O)cc2Oc2cc(O)ccc21)[C@@H](C)O)C(=O)N[C@@H](CCC(=O)O)C(=O)N[C@@H](CCC(=O)O)C(=O)N[C@@H](CC(C)C)C(=O)N[C@@H](CC(=O)O)C(=O)N[C@H](C(=O)N[C@@H](CC(C)C)C(=O)N[C@@H](C)C(=O)N[C@@H](CO)C(N)=O)[C@@H](C)O; N-terminal FITC-Ahx, C-terminal amide; FITC = O=C1OC2(c3ccc(O)cc3Oc3cc(O)ccc32)c2ccc(NC(=S)*)cc21; Ahx = NCCCCCC(=O)O)` gave a Kd of 6.4 ± 1.1 µM (RPA1; fluorescence polarisation; peptide).
The Kd of `RAVTQYLLHLLQKARPTSQ (Clr3 peptide (Schizosaccharomyces pombe))` is reported as greater than 745 µM (Chp2 chromoshadow domain (Schizosaccharomyces pombe); NMR titration; peptide; pH 7.8, 303 K, KCl 150 mM).
`ATRIP fragment, N-terminal FITC, aminohexanoic linker` has a Kd of 0.35 µM (RPA1; fluorescence polarisation; pH 7.5, NaCl 75 mM).
The Kd of `{FITC}-GFID[pS]D[pT]DVEEE-NH2 (MDC1 phosphopeptide; FITC N-terminus, pS5, pT7, C-terminal amide; FITC = O=C1OC2(c3ccc(O)cc3Oc3cc(O)ccc32)c2ccc(NC(=S)*)cc21; pS = N[C@@H](COP(=O)(O)O)C(=O)O; pT = C[C@@H](OP(=O)(O)O)[C@H](N)C(=O)O)` is reported as 280 ± 60 µM (TOPBP1 641-746 R681E/K682E (Homo sapiens, UniProt Q92547); fluorescence polarisation; peptide; NaCl 150 mM).
For `B4 (ISU1 mature)`, the Kd was 4.73 ± 1.79 µM (JAC1 D110A/D113A/D114A/Q117A (Saccharomyces cerevisiae, UniProt P53193); pull-down; apparent).
`RFC1/RFC2/RFC3/RFC4/RFC5 Rfc1 284-end (Saccharomyces cerevisiae)` gave a Kd of 0.0077 µM and 0.0096 µM (POL30 1-258 C22S/C62S/C81S/S43C, MDCC on Cys43 (Saccharomyces cerevisiae, UniProt P15873); fluorescence titration; with: ATP 0.5 mM).
`ubiquitin (Saccharomyces cerevisiae, UniProt P0CG63)` has a Kd of 0.44 ± 0.05 µM (RAD30 fragment (Saccharomyces cerevisiae); SPR; pH 7.4, 25 °C, NaCl 150 mM).
With `B5 (adrenodoxin)` the Kd was 0.2 µM (CYP27A1 (Homo sapiens, UniProt Q02318); MST; pH 7.4, 25 °C, oxidized, single-site model).
`B6 (CDH1 residues 1-108)` gave a Kd of 200 µM (KLRG1 C-type lectin domain 75-186 (Homo sapiens, UniProt Q96E93); SPR; equilibrium fit, Scatchard analysis).
The Kd of `{DOTA}-TNYLFSPNGPIARAW (peptide; N-terminal DOTA; DOTA = O=C(O)CN1CCN(CC(=O)O)CCN(CC(=O)*)CCN(CC(=O)O)CC1)` is reported as 0.0233 µM (EPHB4 16-539 (Homo sapiens, UniProt P54760); SPR; peptide).
The Kd of `{FITC′-Ahx}-ERLEAAACEVNDLG-NH2 (PRDM2 residues 254-267 (Homo sapiens); N-terminal fluorescein, aminohexanoyl spacer, C-terminal amide; FITC′ = fluorescein; Ahx = NCCCCCC(=O)O)` is reported as 70 ± 10 µM (RB1 372-581 linked 636-787 (Homo sapiens, UniProt P06400); ITC; peptide; competition).
For `B7 (DBI)`, the Kd was 0.006 µM (CPT1A 381-469 W391A, Cy3 label (Rattus norvegicus, UniProt P32198); FRET; 24 °C).
`KVAK[pS]PKKAKAW (H1-5 168-178 (Homo sapiens); pS172; pS = N[C@@H](COP(=O)(O)O)C(=O)O)` has a Kd of 2600 µM (PIN1; NMR titration; peptide; apparent Kd, single-residue fits).
`Crebbp fragment (Mus musculus)` has a Kd of 0.0043 ± 0.0001 µM (AKT1 T308D/S473D (Homo sapiens, UniProt P31749); intrinsic Trp fluorescence, fluorescence titration; pH 7.4, 25 °C, wild type).

A few entries again:
With `B5 (adrenodoxin)` the Kd was 0.2 µM (CYP27A1 (Homo sapiens, UniProt Q02318); MST; pH 7.4, 25 °C, oxidized, single-site model).
